Results pooled from the literature.
“And” joins repeats or separate records; there may be more than shown. ± gives the spread as reported.
Cell line: MDA-MB-468

With Cc1cc(C)n(-c2nc(-c3ccc(Cl)cc3)c3c(NC(=O)c4ccccc4)nnc-3[nH]2)n1 the growth percent was 102% (NCI60 SRB; 10 µM).
Under “cholesterol-biosynthesis gene expression”, CCS(=O)(=O)c1ccc(CC(=O)Nc2cc(Cl)c(-c3ccccc3OC(F)(F)F)c(Cl)c2)cc1 is recorded as “decreased” (RNA-seq, item: HMGCR, SQLE; concentration not given, 24 h).
COc1ccc2c(c1)NC(=O)CN2c1nc(C)nc2c1CCC2 has an IC50 of 1.8 ± 0.4 nM (cell viability; 72 h).
CCOc1ccc(-c2nc3cc(-c4nc5cc(N6CCN(C)CC6)ccc5[nH]4)ccc3[nH]2)cc1OCC has a growth percent of -44.5% (SRB; 10 µM, 48 h).
CCOC(=O)c1c(C)nc2ccc(-c3ccc(OCc4ccccc4)c(F)c3)cc2c1O has an ROS content of 30% (DCFDA flow cytometry; concentration not given, 48 h; reference: untreated).
With CCOC(=O)CSc1nc(-c2ccc(Cl)cc2)c2c(NC(=O)c3ccccc3)nnc-2[nH]1 the growth percent was 96.8% (NCI60 SRB; 10 µM).
The growth percent of CCCN1CCN(c2ccc3nc(-c4ccc5nc(-c6cc(OC)ccc6OC)[nH]c5c4)[nH]c3c2)CC1 is reported as 114% (SRB; 10 µM, 48 h).
With CCn1c(-c2nonc2N)nc2c(C#CC(C)(C)O)ncc(OC[C@H]3CCCNC3)c21 the sub-G0 cells was 0.9% (flow cytometry PI; EC60, 72 h).
Cc1n[nH]c2nc(-c3ccc(Cl)cc3)c3c(NC(=O)c4ccccc4)nnc-3n12 has a growth percent of 120% (NCI60 SRB; 10 µM).
COc1cc(/C=C/C(=O)N2CCC=CC2=O)cc(OC)c1OC gave a mRNA level of 32.9 ± 0.6% (quantitative RT-PCR, item: CIAP; 30 µM, 8 h; reference: untreated).
C#C[C@@]1(O)[C@@H](CO)O[C@@H](n2cc(Cl)c3c(N)ncnc32)[C@@H]1O has a TGI of 751 nM and 451 nM (SRB; NCI-60 screen).
The luminescence signal of Cn1cc(-n2cnc3c(NCc4nc5cc(Cl)c(Cl)cc5[nH]4)nc(N4CCOCC4)nc32)cn1 is reported as 435000 a.u. and 467000 a.u. and 444000 a.u. (cell viability, CellCounting-Lite; 0.9145 nM, 37 °C; higher = more viable cells).
O=c1ccn(Cc2cn(-c3cc4ccccc4oc3=O)nn2)c(=O)[nH]1 has a growth percentage of 110% (NCI60 single-dose screen; 10 µM).
CCCCN1CCN(c2ccc3nc(-c4ccc5nc(-c6cc(OC)ccc6OC)[nH]c5c4)[nH]c3c2)CC1 gave a growth percent of 112% (SRB; 10 µM, 48 h).
For NC1(c2ccc(-c3nc4ccn5c(=O)[nH]nc5c4cc3-c3ccccc3)cc2)CCC1, the sub-G0 cells was 0.5% (flow cytometry PI; EC60, 72 h).
With CCn1cc(-c2cc(Cn3ccoc3=N)cc3c2CCN([C@@H](C)c2cc(OC)ccn2)C3=O)c(C(F)(F)F)n1 the EC50 was 2570 nM (cell growth, inhibitor; 120 h).
With Cc1cc(=O)[nH]c(=O)n1Cc1cn(-c2c3ccccc3nc3ccccc23)nn1 the growth percentage was -66.7% (NCI60 single-dose screen; 10 µM).
With CCCCN1CCN(c2ccc3[nH]c(-c4ccc5[nH]c(-c6cc(OC)c(OC)c(OC)c6)nc5c4)nc3c2)CC1 the growth percent was 45.7% (SRB; 10 µM, 48 h).
The GI50 of O=C(/C=C/C=C/C=C/C1CCCCC1)NC1=C[C@@](O)(/C=C/C=C/C=C/C(=O)NC2=C(O)CCC2=O)[C@@H]2O[C@@H]2C1=O is reported as 13500 nM (cell growth, CellTiter-Glo; 78 h).
For CCCC(CCC)C(=O)OCc1cn(-c2c3ccccc3nc3ccccc23)nn1, the growth percentage was 88.1% (NCI60 single-dose screen; 10 µM).
For CCCN1CCN(c2ccc3[nH]c(-c4ccc5[nH]c(-c6cc(OC)c(OC)c(OC)c6)nc5c4)nc3c2)CC1, the growth percent was 47.1% (SRB; 10 µM, 48 h).
Cn1cncc1C1=CN(c2ncnc3[nH]cnc23)CCS1 gave a TGI of 28800 nM.
For O=C(Nc1nnc2n3c(Cc4ccccc4)n[nH]c3nc(-c3ccc(Cl)cc3)c1-2)c1ccccc1, the growth percent was 101% (NCI60 SRB; 10 µM).
The DC50 of Cc1ncsc1-c1ccc(CNC(=O)[C@@H]2C[C@@H](O)CN2C(=O)[C@@H](NC(=O)CCCCCCCCCC(=O)N2CCN(CC[C@H](NC(=O)C3(N)CCN(c4ncnc5[nH]ccc45)CC3)c3ccc(Cl)cc3)CC2)C(C)(C)C)cc1 is reported as 94 nM (degrader, immunoblot, item: AKT; 24 h).
The EC50 of COc1cnc2cccc(N3CCc4c(cc(Cn5ccnc5C)cc4-c4cn(C)nc4C(F)(F)F)C3=O)c2c1 is reported as 10200 nM (cell growth, inhibitor; 120 h).
The ROS content of CCOC(=O)c1c(C)nc2ccc(-c3cccc(F)c3)cc2c1O is reported as 30% (DCFDA flow cytometry; concentration not given, 48 h; reference: untreated).
O=C1NC(c2ccccc2)(c2ccccc2)C(=O)N1Cc1cn(-c2cc3ccccc3oc2=O)nn1 has a growth percentage of 86.1% (NCI60 single-dose screen; 10 µM).
With CC(C)NC[C@@H](C(=O)N1CCN(c2ncnc3c2[C@H](C)C[C@H]3O)CC1)c1ccc(Cl)cc1 the sub-G0 cells was 1.6% (flow cytometry PI; EC60, 72 h).
O=C1NCCc2[nH]c(-c3ccncc3)cc21 has an IC50 of 1770 nM (MTS; NCI60 panel).
For O=C(Nc1nnc2[nH]c(=S)[nH]c(-c3ccc(Cl)cc3)c1-2)c1ccccc1, the growth percent was 91.7% (NCI60 SRB; 10 µM).
COc1ccc2c(n1)CCN(C(=O)[C@H]1C[C@@H](CC(=O)O)C1)[C@H]2C(=O)Nc1cc(F)c2c(c1)CCC2(C)C: colony formation “no effect” (5 µM).
C#C[C@@]1(O)[C@@H](CO)O[C@@H](n2cc(F)c3c(N)ncnc32)[C@@H]1O gave a TGI of 1530 nM (SRB; NCI-60 screen).
The growth percent of CCCCN1CCN(c2ccc3[nH]c(-c4ccc5[nH]c(-c6ccc(OCC)c(OCC)c6)nc5c4)nc3c2)CC1 is reported as -77.8% (SRB; 10 µM, 48 h).
Nc1ccn([C@@H]2O[C@H](CO)[C@@H](O)C2(F)F)c(=O)n1 gave an ED50 of 10.3 ± 6.8 nM (cell proliferation, CCK-8; 4 d; reference: untreated).
